# Results pooled from the literature.
# Compare with care: the assays were run in different laboratories. pEC50: −log10 of the molar value.
SMILES,target or system,assay,system,conditions,how to read,endpoint,value
O=C(O)CCCc1ccccc1,,"binding, equilibrium dialysis LC-MS",,"5 µM, thermostabilized A2AR-BRIL construct","baseline: no-protein control, direction not given",z-scored log2 fold change,0.0779
COc1cc(N2CCC(N3CCN(C)CC3)CC2)ccc1Nc1ncc(Cl)c(Nc2ccccc2S(=O)(=O)C(C)C)n1,iCell Cardiomyocytes (hiPSC-derived),cellular impedance,,"concentration not given, 24 h",baseline: control,cell index,99.5%
Cn1cc(-c2ccc(-c3cncc(Cl)c3N3CCC4(CCNC4=O)CC3)cc2)cn1,COLO 205,"microarray, measured: NFE2L2",,"concentration not given, 2 h, gene set NRF2",baseline: untreated cells,fold change in expression,2.1
Cc1ccc(-n2nc(C(C)(C)C)cc2NC(=O)Nc2ccc(OCCN3CCOCC3)c3ccccc23)cc1,iCell Cardiomyocytes (hiPSC-derived),CellTiter-Glo,,"concentration not given, 24 h",baseline: control,ATP level,97.6%
CCn1cc(-c2cc(Cn3ccoc3=N)cc3c2CCN([C@@H](C)c2cc(OC)ccn2)C3=O)c(C(F)(F)F)n1,SNU-449,"cell growth, inhibitor",,120 h,,pEC50,5.09
CC(C)(C)c1cnc(CSc2cnc(NC(=O)C3CCNCC3)s2)o1,iCell Cardiomyocytes (hiPSC-derived),cellular impedance,,"concentration not given, 24 h",baseline: control,cell index,53.2%
O=C(O)c1ccc(-c2c[nH]c3ncc(-c4ccccc4)cc23)cc1C1CCCC1,SK-OV-3,ATP,,"10 µM, 4 days, 3D U-bottom low-attachment",baseline: untreated,relative cell number,107%
C=CCNC1=C2C[C@@H](C)C[C@H](OC)[C@H](O)[C@@H](C)/C=C(\C)[C@H](OC(N)=O)[C@@H](OC)/C=C\C=C(/C)C(=O)NC(=CC1=O)C2=O,ARPE-19 HiBiT fibulin-3,HiBiT luminescence,,1.66 µM,,fibulin-3 level,-36%
COc1cc(-c2ccccc2)ncc1C(=O)Nc1ccc2c(=O)[nH]c(-c3ccc(C(C)(C)O)cc3)nc2c1,Apc Q1405X mutant organoids,"organoid viability, AlamarBlue",mouse small intestinal organoids,"6 days, Tnks genotype Tnks+/-",,Hill slope,-0.788
CC(=O)NCCCC[C@H](N)C(=O)O,,"binding, equilibrium dialysis LC-MS",,"5 µM, thermostabilized A2AR-BRIL construct","baseline: no-protein control, direction not given",z-scored log2 fold change,0.14
O=C(/C=C/C=C/C=C/C1CCCCC1)NC1=C[C@@](O)(/C=C/C=C/C=C/C(=O)NC2=C(O)CCC2=O)[C@@H]2O[C@@H]2C1=O,KYSE-180,"cell growth, CellTiter-Glo",,78 h,,GI50,20.6 µM
CO[C@@H]1[C@H](N(C)C(=O)c2ccccc2)C[C@H]2O[C@]1(C)n1c3ccccc3c3c4c(c5c6ccccc6n2c5c31)C(=O)NC4,iCell Cardiomyocytes (hiPSC-derived),xCELLigence Cardio impedance,,"concentration not given, 2 h",baseline: control,beat rate,166%
CCn1cc(-c2cc(Cn3ccnc3)cc3c2CCN([C@H](c2cc(OC)ccn2)C2CC2)C3=O)c(C(F)(F)F)n1,Ramos,"cell growth, inhibitor",,120 h,,pEC50,5.06
Clc1nc(NCc2ccco2)c2[nH]cnc2n1,iPSC-derived cardiomyocytes,"RNA-seq, measured: chr1 exon ending 94961433",,unit not given,baseline: DMSO minus compound,ΔPSI,-0.209
CC(C)(C)c1cnc(CSc2cnc(NC(=O)C3CCN(C(=O)CCCCCCCN4Cc5cc6c(cc5C4)C(=O)N(C4CCC(=O)NC4=O)C6=O)CC3)s2)o1 (stereo not drawn),TC-71,Western blot,,low nanomolar,,Rpb1 Ser2 CTD phosphorylation,decreased
CC(C)Nc1ccnc(Nc2ccccc2-c2ccccc2)n1,MOLM-13 (FLT3-ITD),"cell viability, MTT",,72 h,,pEC50,< 5.00
Cn1c(Nc2nc3ccc(C(F)(F)F)cc3s2)nc2cc(C(=O)NCCOCCO)ccc21,SH-SY5Y,"RNA-seq, measured: IL4R mRNA",,"5 µM, 5 h",baseline: untreated cells,fold change,2.09
O=C(c1ccc(/C=C/c2n[nH]c3ccccc23)cc1)N1CCNCC1,iCell Cardiomyocytes (hiPSC-derived),xCELLigence Cardio impedance,,"concentration not given, 2 h",baseline: control,beat amplitude,108%
Cc1cc(Nc2ncc(Cl)c(Nc3ccccc3S(=O)(=O)C(C)C)n2)c(OC(C)C)cc1C1CCNCC1,CLB-BAR,"phosphoproteomics LC-MS/MS, measured: SLC35E1 phosphorylation",,"200 nM, 60 min",baseline: untreated,log2 fold change,-3.41
O=C(NC1CCNCC1)c1[nH]ncc1NC(=O)c1c(Cl)cccc1Cl,iCell Cardiomyocytes (hiPSC-derived),cellular impedance,,"concentration not given, 24 h",baseline: control,cell index,88.6%
COc1cnc2cccc(N3CCc4c(cc(Cn5ccnc5C)cc4-c4cn(C)nc4C(F)(F)F)C3=O)c2c1,CAL-120,"cell growth, inhibitor",,120 h,,pEC50,5.15
